Measurements gathered from unrelated publications.
Compare with care: the assays were run in different laboratories. ± gives the spread as reported.

With `COc1cc(OC)cc(C2=C3C(C)=C(I)C(C)=[N+]3[B-](F)(F)n3c(/C=C/c4c[nH]c5ccc([N+](=O)[O-])cc45)c(I)c(C)c32)c1` the logP was 1.5 (octanol/HEPES buffer; pH 7.4, room temperature).
The logP of `N[C@@H](CSC(F)(F)[18F])C(=O)O` is reported as -2.75 (n-octanol/water).
The logP of `CN1CC[C@H](c2c(O)cc(O)c3c(=O)cc(/C=C/c4c(Cl)cccc4Cl)oc23)[C@H](O)C1` is reported as 1.82 ± 0.14 (shake flask; n-octanol/water).
With `CCC1=C(CC)C2=[N+]3C1=Cc1c(CC)c(CC)c4[n]1[Ir-3]31([Cl])([C]#[O+])[n]3c(c(CC)c(CC)c3=CC3=[N+]1C(=C4)C(CC)=C3CC)=C2` the logP was 2.38 (ICP-MS; n-octanol/saline).
For `CC1=C2[O][Ru-]([Cl])[O+]=C2C=CN1CCCCCCN1C=CC2=[O+][Ru-]([Cl])[O]C2=C1C.Cc1ccc(C(C)C)cc1.Cc1ccc(C(C)C)cc1`, the logP was -1.36 (shake flask, ICP-MS; n-octanol/water; aqua complex).
`C1=CCCC=CCC1.F[P-](F)(F)(F)(F)F.[Pt+][c]1ccccc1P(=Nc1ccccc1)(c1ccccc1)c1ccccc1` gave a logP of 0.02 (n-octanol/phosphate buffer; pH 7.00).
With `CC[P+](N=P(c1ccccc1)(c1ccccc1)c1ccccc1)(c1ccccc1)c1ccccc1` the logP was 0.51 (HPLC; octanol/water; 100 µM).
`N#Cc1ccc(/C=C/C=C/c2ccc3ncnc(Nc4ccccc4)c3c2)cc1` gave a logP of 1.55 (octanol/water).
`O=C(OCc1ccc(F)cc1)N(Cc1cccc(CN2CCCCC2)c1)[c-]1cccc1.[Fe+2].c1cc[cH-]c1` has a logP of 6.05 ± 0.07 (RP-TLC; MOPS/acetonitrile; pH 7.4).
`CC[P+](CC)(CC)[Au-][S][C@@H]1O[C@H](CO)[C@@H](O)[C@H](O)[C@H]1O` has a logP of -0.81 (n-octanol/water).
With `CCCCC[P+](c1cc(C)cc(C)c1)(c1cc(C)cc(C)c1)c1cc(C)cc(C)c1` the logP was 0.9 ± 0.01 (shake flask, HPLC; 1-octanol/water).
`CCCCCCCCCC[N]1C(=O)c2cccc[n+]2[Ir]1[Cl].Cc1c(C)c(C)[c-](C)c1C` has a logP of 1.47 ± 0.2 (shake-flask; octanol/PBS).
`CC(=O)Nc1ncc(CN2CC[C@H](Oc3cccc(F)n3)C[C@@H]2C)s1` gave a logP of 3.05.
`C#CCN(C(=O)OCc1ccc(B2OC(C)(C)C(C)(C)O2)cc1)[c-]1cccc1.[Fe+2].c1cc[cH-]c1` has a logP of 5.51 ± 0.17 (RP-TLC; MOPS/acetonitrile; pH 7.4).
